Published values pooled from the literature.
Each numbered part is a random draw from the data of one study; scales do not carry over between parts.

Set 1 — method: RNA Bind-n-Seq; molecule type: RNA; medium: in vitro; concentration: 365 nM; reference: no-protein control; reading: higher = stronger binding
Target: RNA binding protein fox-1 homolog 2, RRM domain, GST-SBP tag (RBFOX2, Homo sapiens, UniProt O43251-10, residues 100-194)
Setting: natural RNA segment, single round, ends assumed
Construct (chain): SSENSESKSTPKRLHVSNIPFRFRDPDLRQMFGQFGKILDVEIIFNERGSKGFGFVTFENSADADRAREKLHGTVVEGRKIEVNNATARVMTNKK
`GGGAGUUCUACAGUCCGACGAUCAUUUUAAUUCUAGAUGUGUUAUCUCUCUGGGAAGUAUAGUUUAUAGAAACACAAAAUAUUUGAUUUCCUGUGUCGGCUCAGCUACAAGAAACACAACUGUUAUCUUGACAUGGAAUUCUCGGGUGCCAA`: “RBNS enrichment (R)” 0.935.
For `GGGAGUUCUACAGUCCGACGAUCUUCUAACCAUUAUUUGGGAACAAAGAGAGUUUUCAUCUUUUUUCAGAUCAAAACCAUUCUGUAAAAUCUUUGUUGUUUAAUUAAAUGUGCCGUUAUUUACCCCUGAUGUUUGGAAUUCUCGGGUGCCAA`, “RBNS enrichment (R)” read 0.997.
For `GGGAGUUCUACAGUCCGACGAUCGGGCAUACCACAUAACUAGAUGCAAGAACCUUGGGGUAGCAUUCUGUAUUUUUAAAUAUGUUUUAAAAGAACUCAGGAACAAUUUACGUCUCUGUAUCUUUUUUUUACUAUGGAAUUCUCGGGUGCCAA`, “RBNS enrichment (R)” read 0.535.
For `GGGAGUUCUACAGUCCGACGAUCCCUUAGUCUCCAAGGUCAUCACCCCACCCACUCCCAUCAGUGUGGGCCUUGCUGCCAUUCCAGUCACGCACUCCUUGUCCCUGUCUCGCAUGGAGAUCAAAGAAAUAGCAUGGAAUUCUCGGGUGCCAA`, “RBNS enrichment (R)” read 5.23.
Under “RBNS enrichment (R)”, `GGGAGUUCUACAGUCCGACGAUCCUCUGCUUCUCUCUGUCAGCGUCCUGCUGCUCUAGAAGACUGUCCGUGGAUGAGUUUAGUGUACAGACUUGUAAACAGCUGCCCCCUCUCUGCUCAGUCUAGUUCCCAGAUGGAAUUCUCGGGUGCCAA` is recorded as 0.366.
Under “RBNS enrichment (R)”, `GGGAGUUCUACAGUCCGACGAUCGACCUCUGCCUGGAGACGCAGCAGCCUGUGUCCUCCAGGGCCUCUGGUUUGUUGUAUUAUAGUAUAUUUCGCUGUGGAAAAUGUCACGUUUAGUCACCUUGGAGCCCACUUGGAAUUCUCGGGUGCCAA` is recorded as 0.34.
For `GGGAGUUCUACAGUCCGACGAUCCCCUCCCCCCAGGACCACCCAGGCCCACAUCCACCGGCUUCCUCAGCAGAUGCUGGGGUAUGGCCUCAAGACCUUCCCUCUCUCCUGAAGAUGUCUCAACCCUACAAAGAUGGAAUUCUCGGGUGCCAA`, “RBNS enrichment (R)” read 0.45.
`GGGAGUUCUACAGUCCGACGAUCCAGAAGUUGAGGCCAAGGGAGAAUGGUAGGCACAGAAGAAACAUGGCAAACUGCUCUGUGCUUUCAAACCAAAGUGUUCCCCCCAACCCCAAAUUUGUCUAAGCACUGGCUGGAAUUCUCGGGUGCCAA`: “RBNS enrichment (R)” 0.329.

Set 2 — method: RNA Bind-n-Seq; molecule type: RNA; medium: in vitro; concentration: 200 nM; setting: whole 134-nt RNA, ends assumed; added: 150 mM KCl; reference: input library; reading: higher = stronger binding
Target: Fragile X messenger ribonucleoprotein 1, C-terminal low-complexity region (Fmr1, Mus musculus, UniProt P35922)
For `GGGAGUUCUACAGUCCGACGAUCUGGGAGGUGGAUUUUGUUUAUUUUUUUAUCUCAUUUCCAGGGGUGGGAAUUUUUUUUUAAUAUGUGUCAUGAAUAAAGUUGUUUUUGAAAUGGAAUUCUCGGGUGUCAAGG`, the log2 enrichment was 0.118.
`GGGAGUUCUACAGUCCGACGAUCUCAAGUCCUGUGCUACACAUCGUAUGUACCGAAUCGGUUUGGUUUGGAAAAAGGAAAGUAUUAUGUUACGCCGUUCGGAUCUGCACUUCCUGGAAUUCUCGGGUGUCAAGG` has a log2 enrichment of -0.526.
The log2 enrichment of `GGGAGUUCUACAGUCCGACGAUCCUCAAGUCCUGUGCUACACAUCGUAUGUACCGAAUCGGGGUGGGUGGGGUGGGGAAAGUAUUAUGUUACGCCGUUCGGAUCUGCACUUCCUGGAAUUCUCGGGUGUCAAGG` is reported as 0.235.
`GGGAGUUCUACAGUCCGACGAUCACCAUAAAGGUGGGCAUCUUUGGGAAGUGGGGCAAGGGGGGGAUAGGGAGGGGGGUAACACUUUGGGAACAGGUGGUCCCAGGUCGUUUCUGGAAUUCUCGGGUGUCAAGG` has a log2 enrichment of 0.837.
With `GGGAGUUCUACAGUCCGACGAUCGUCCUGUGCUACACAUCGUAUGUACCGAAUCGGGGUUUUUGGGUUUUUGGGUUUUUGGGAAAGUAUUAUGUUACGCCGUUCGGAUCUGCAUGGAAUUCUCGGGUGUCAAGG` the log2 enrichment was 0.327.
`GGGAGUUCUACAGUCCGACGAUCGUCCUGUGCUACACAUCGUAUGUACCGAAUCGGGAAAGGGAAAAAGGGAAAAAAAGGGAAAGUAUUAUGUUACGCCGUUCGGAUCUGCACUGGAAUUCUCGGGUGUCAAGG` has a log2 enrichment of -0.507.
The log2 enrichment of `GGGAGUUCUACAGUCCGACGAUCAAGUCCUGUGCUACACAUCGUAUGUACCGAAUCGGAAAAAGGAAAGGAAAAAAAGGAAAGUAUUAUGUUACGCCGUUCGGAUCUGCACUUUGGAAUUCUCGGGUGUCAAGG` is reported as -0.82.
With `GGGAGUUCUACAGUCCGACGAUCGCAGGAAGUAAAAACAAAUGGAAAUGUUUCGGAUAGUGGCAGGGGUGGGGGUUGCUAAGGAAAGGGUGGGAUGGGAGUGGGUAAAGAGUUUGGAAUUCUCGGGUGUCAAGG` the log2 enrichment was 0.459.
The log2 enrichment of `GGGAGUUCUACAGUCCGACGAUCUGGCCCUGGUGGCAUGCUGGGAGGAAGAGGUGGCCUCAUGGAUCGUGGUGGUCCCGGUGGAAUGUUCAGAGGUGGCCGUGGUGGAGACAGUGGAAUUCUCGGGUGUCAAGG` is reported as -0.0671.

Set 3 — method: RNA Bind-n-Seq; molecule type: RNA; medium: in vitro; concentration: not given; reference: input RNA pool; reading: higher = stronger binding
Target: RING finger protein unkempt homolog, zinc fingers 1-6, GST-SBP tag (UNK, Homo sapiens, UniProt Q9C0B0, residues 30-357)
Sequence of UniProt Q9C0B0 (30-357, looked up): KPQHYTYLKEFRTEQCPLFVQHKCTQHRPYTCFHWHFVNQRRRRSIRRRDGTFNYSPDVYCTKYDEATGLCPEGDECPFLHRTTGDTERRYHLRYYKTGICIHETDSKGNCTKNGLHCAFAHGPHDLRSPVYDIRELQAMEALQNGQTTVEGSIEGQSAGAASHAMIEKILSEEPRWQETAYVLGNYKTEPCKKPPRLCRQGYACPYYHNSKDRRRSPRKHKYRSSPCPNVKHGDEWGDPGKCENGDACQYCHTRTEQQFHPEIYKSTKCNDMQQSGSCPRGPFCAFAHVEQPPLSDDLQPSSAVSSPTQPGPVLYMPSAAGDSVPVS
Setting: RNA with constant flanks, human and mouse sites, ends assumed
For `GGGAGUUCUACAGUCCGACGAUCUGAUUUUUCCUUUCGCGAAUCCGUAUCUGCAGAAUGGGCCACUGUAGGGGUUGGGGUUUAUUUUGUUUUGUUUUUUUUUUUCUUGAGUUCACUUUGGAUCCUUAUUUUGUAUGACUUCUGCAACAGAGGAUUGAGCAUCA`, the bound/input enrichment was 2.02 ratio.
For `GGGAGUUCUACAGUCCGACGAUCCAUUCUGAAUUUCAUAUAGUAUAAGUUAGACAUUGCUUAAUCCUUUUUUAAAUGUAUUUACAUAGACACGAACACUCAAAUUGUUGGAUUUUUAAAACUAUAUCUGACAUAAUUUUUUUCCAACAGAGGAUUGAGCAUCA`, the bound/input enrichment was 11.7 ratio.
`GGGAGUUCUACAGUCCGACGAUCAAUAAUUCUUUAAUGCUUGACAAAAUUAUUGGUGAAAAAAGGAGGCGAAUACAGAUCACAAUAUUGUCAUACCACUCCUCAAUUGGAGUAAGAAAAGAUGAACUGGUUCAUGGGUAUAUACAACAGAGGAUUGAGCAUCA` gave a bound/input enrichment of 0.289 ratio.
With `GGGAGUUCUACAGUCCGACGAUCACCUUUGAUCAGGCCACAGGUGGGACUGCGCAAUUUGAAGCACACUCAGAUGCUCAGGCUUUGGUCCUCUUAGAUGUCACUCCUGACCAGUCAAUGGUAGAUGAAGGAAUGGCUCGGGAACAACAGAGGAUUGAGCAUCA` the bound/input enrichment was 0.204 ratio.
With `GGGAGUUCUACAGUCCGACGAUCUUGCCCAUCAGAUUUAAUCUUACUUAUGUAAGCCAUGAUGGUGAUGAUAAGAAAAGGCCAGUGAUUGUUCAUCGAGCCAUCUUGGGAUCAGUGGAAAGAAUGAUUGCUAUCCUCACAGAACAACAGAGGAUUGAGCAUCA` the bound/input enrichment was 0.137 ratio.
For `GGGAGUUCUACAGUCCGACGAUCAGCAAAGAAGAAGUUAUCAAGUUCUUGGAAAAUACUCCAUCCAGUCUGAAUAUAGAAGAUAUAGAAGACCUUUUCUCUCUGGCUCAGUAUUAUUGCAGCAAAACACCGGCUUCUUUUAGGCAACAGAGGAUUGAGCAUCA`, the bound/input enrichment was 0.432 ratio.
The bound/input enrichment of `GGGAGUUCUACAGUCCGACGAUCAUUUCUGCAAUUGAGAAACAGGCACACAAGUGUGAGGAGUUGCUAAAUGCUCAGCAUCAGAGGCUCCUUGAAAUGCUAGAUACAGAGAAGGAACUGUUAAAAGAAAAAAUAAAGGAAGCUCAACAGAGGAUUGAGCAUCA` is reported as 0.781 ratio.
For `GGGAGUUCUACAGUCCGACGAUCGCGAGAUCCGCUGCUGCUGAGGAGAGGAGCGUCAACAGCAGCACCAUGGUACAACAGAAGAACCUUGAAGGCUAUGUGGGAUUUGCCAAUCUCCCAAAUCAAGUAUACAGAAAAUCGGUGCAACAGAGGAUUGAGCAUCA`, the bound/input enrichment was 0.196 ratio.

Set 4 — method: universal PBM; molecule type: double-stranded DNA, one strand shown; medium: in vitro; concentration: not given; reading: higher = stronger binding
Target: Sal-like protein 4, full length isoform B (SALL4, Homo sapiens, UniProt Q9UJQ4-2, residues 1-616)
Setting: 8-mer, flanks averaged, mean of replicates
The E-score of `ATCCCCAC` is reported as -0.208.
`AAGTATTC` gave an E-score of 0.164.
`CTCGGGTA` gave an E-score of -0.11.
For `AGTATCAC`, the E-score was 0.0773.
For `ACCGCAGC`, the E-score was -0.196.
`AGTGTTGC` gave an E-score of -0.0203.
The E-score of `CCACATAG` is reported as -0.202.
With `TACTGAAA` the E-score was 0.286.
With `GTCATTCA` the E-score was 0.145.
The E-score of `CCACCGGA` is reported as -0.152.
For `GTATGAGA`, the E-score was 0.24.
`GAGGTAGC` has an E-score of -0.147.
For `GCAAAGAC`, the E-score was 0.0464.
The E-score of `CCCCAGTA` is reported as -0.0328.
For `CTACGAAC`, the E-score was -0.0355.
`CGGGATCC` gave an E-score of -0.238.
For `CCGGGCAC`, the E-score was -0.33.
With `AGCTCATG` the E-score was -0.0684.
`ACGGGGAC` gave an E-score of -0.223.

Repeated from above (set 4):
The E-score of `CCACCGGA` is reported as -0.152.
For `CTACGAAC`, the E-score was -0.0355.
`CGGGATCC` gave an E-score of -0.238.
`CTCGGGTA` gave an E-score of -0.11.
With `TACTGAAA` the E-score was 0.286.
With `GTCATTCA` the E-score was 0.145.
For `CCGGGCAC`, the E-score was -0.33.
